# Experimental data gathered from unrelated publications.
# Each line is one published result; not all experiments were run side by side. ± gives the spread as reported.
# Cell line: HEK293
SMILES,test,setting,scale,measurement,value
Nc1nc2nc[nH]c2c(=S)[nH]1,"cell viability, MTT","48 h, high affinity phase",,EC50,3.16 µM
CCN(CC)CCCC(C)Nc1ccnc2cc(Cl)ccc12 (stereo not shown),oxygen consumption,,,IC50,> 12 µM
CCC(=O)O,"mouse C10orf99 promoter luciferase, activator","concentration not given, 12 h, serum-free medium",baseline: empty vector,reporter activity,increased
FC(F)(F)Oc1ccc(-c2cc3ccccc3[nH]2)cc1,cell growth or viability,50 µM,,viability,74.8%
CN(Cc1cnc2nc(N)nc(N)c2n1)c1ccc(C(=O)N[C@@H](CCC(=O)O)C(=O)O)cc1,"cell growth or viability, MTT",24 h,,IC50,38 µM
Nc1ccn([C@@H]2O[C@H](CO)[C@@H](O)C2(F)F)c(=O)n1,"cell viability, MTT","48 h, high affinity phase",,EC50,0.0417 µM
CO[C@H]1[C@@H](O)[C@H]([n+]2cn(C)c3c(=O)[nH]c(N)nc32)O[C@@H]1COP(=O)([O-])OP(=O)(O)OP(=O)(O)OC[C@H]1O[C@@H](n2cnc3c(=O)[nH]c(N)nc32)[C@H](O)[C@@H]1O,luciferase reporter,mRNA capped with cpd,baseline: m7GpppG-capped mRNA,relative protein expression,1.29 ± 0.25
Cc1ccc(S(=O)(=O)/C=C/C#N)cc1,"cell growth or viability, ATP luminescence",24 h,,IC50,2.73 µM
Cn1c(=O)c2c(nc(OCc3cn(CCc4ccccc4)nn3)n2C)n(C)c1=O,"cell growth or viability, MTT",24 h,,IC50,> 300 µM
CCCCCCCc1c(C)[nH]c2cc(OC)ccc2c1=O,oxygen consumption,,,IC50,> 25 µM
Clc1ccc(-c2cc3ccccc3[nH]2)cc1Cl,cell growth or viability,50 µM,,viability,115%
Nc1ccn([C@@H]2O[C@H](CO)[C@@H](O)[C@@H]2O)c(=O)n1,"cell viability, MTT","48 h, low affinity phase",,EC50,6030 µM
c1cncc(-c2cc3ccccc3[nH]2)c1,cell growth or viability,50 µM,,viability,71.4%
Cn1c(=O)c2c(nc(OCc3cn(C(c4ccccc4)c4ccccc4)nn3)n2C)n(C)c1=O,"cell growth or viability, MTT",24 h,,IC50,284 µM
CN1[C@@H]2CC[C@H]1C[C@@H](OC(=O)C(CO)c1ccccc1)C2 (stereo partly shown),ACh-induced Ca2+ response,"100 µM, 1 h, together with: ACh 100 µM",,inhibition,inhibited
Nc1ccc2[nH]c(-c3ccccc3)cc2c1,cell growth or viability,50 µM,,viability,73.8%
COc1cc(O)cc(O)c1C(=O)/C=C/c1ccccc1,"cell growth or viability, ATP luminescence",24 h,,IC50,27.5 µM
Fc1cc(F)cc(-c2cc3ccccc3[nH]2)c1,cell growth or viability,50 µM,,viability,108%
CCCCCCCn1cc(COc2nc3c(c(=O)n(C)c(=O)n3C)n2C)nn1,"cell growth or viability, MTT",24 h,,IC50,> 300 µM
Sc1ncnc2nc[nH]c12,"cell viability, MTT","48 h, high affinity phase",,EC50,7.76 µM
CC[C@H](C)[C@H](NC(=O)OCc1ccccc1)C(=O)N[C@@H](CCC(=O)OC(C)(C)C)C(=O)N[C@@H](C)C(=O)N[C@H](C=O)CC(C)C,"cell growth or viability, ATP luminescence",24 h,,IC50,0.373 µM
Nc1nc(Cl)nc2c1ncn2[C@H]1C[C@H](O)[C@@H](CO)O1,"cell viability, MTT","48 h, high affinity phase",,EC50,10.5 µM
Cc1ccccc1-c1cc2ccccc2[nH]1,cell growth or viability,50 µM,,viability,121%
C[C@]1(CO)CN(c2cc(C(=O)Nc3ccc4c(c3)-c3c(c(C(N)=O)nn3-c3ccc(F)cc3)CC4)c(Cl)cn2)C[C@@]1(C)CO,"cell growth or viability, ATP luminescence",24 h,,IC50,1.23 µM
CCCCCc1ccc(-c2cc3ccccc3[nH]2)cc1,cell growth or viability,50 µM,,viability,86.6%
CCCCCCn1cc(COc2nc3c(c(=O)n(C)c(=O)n3C)n2C)nn1,"cell growth or viability, MTT",24 h,,IC50,> 300 µM
Nc1ccccc1C#Cc1cc(F)cc(F)c1,cell growth or viability,50 µM,,viability,121%
CCN(CC)CCOC(=O)C(c1ccccc1)C1CCCCC1 (stereo not shown),,,,nonspecific calcium flux concentration,> 500 µmol/L

# Excerpt of the above:
SMILES,test,setting,scale,measurement,value
COc1cc(O)cc(O)c1C(=O)/C=C/c1ccccc1,"cell growth or viability, ATP luminescence",24 h,,IC50,27.5 µM
Fc1cc(F)cc(-c2cc3ccccc3[nH]2)c1,cell growth or viability,50 µM,,viability,108%
